Published values gathered from unrelated publications.
Lines come from different studies, so protocols differ. Numbers after ± are the reported error.
PKG T618Q: cGMP-dependent protein kinase (PKG, Plasmodium falciparum, UniProt Q8I719, T618Q)
OPRL1: Nociceptin receptor (OPRL1, Homo sapiens, UniProt P41146)
Orco: Orco (Drosophila melanogaster, UniProt Q9VNB5)

Amino acid sequences for entries named in this document (tags omitted). Chains listed by the source or under a name are the forms on record and can include a tag or linker. Residues count along the entry.
UniProt Q8I719, whole entry T618Q: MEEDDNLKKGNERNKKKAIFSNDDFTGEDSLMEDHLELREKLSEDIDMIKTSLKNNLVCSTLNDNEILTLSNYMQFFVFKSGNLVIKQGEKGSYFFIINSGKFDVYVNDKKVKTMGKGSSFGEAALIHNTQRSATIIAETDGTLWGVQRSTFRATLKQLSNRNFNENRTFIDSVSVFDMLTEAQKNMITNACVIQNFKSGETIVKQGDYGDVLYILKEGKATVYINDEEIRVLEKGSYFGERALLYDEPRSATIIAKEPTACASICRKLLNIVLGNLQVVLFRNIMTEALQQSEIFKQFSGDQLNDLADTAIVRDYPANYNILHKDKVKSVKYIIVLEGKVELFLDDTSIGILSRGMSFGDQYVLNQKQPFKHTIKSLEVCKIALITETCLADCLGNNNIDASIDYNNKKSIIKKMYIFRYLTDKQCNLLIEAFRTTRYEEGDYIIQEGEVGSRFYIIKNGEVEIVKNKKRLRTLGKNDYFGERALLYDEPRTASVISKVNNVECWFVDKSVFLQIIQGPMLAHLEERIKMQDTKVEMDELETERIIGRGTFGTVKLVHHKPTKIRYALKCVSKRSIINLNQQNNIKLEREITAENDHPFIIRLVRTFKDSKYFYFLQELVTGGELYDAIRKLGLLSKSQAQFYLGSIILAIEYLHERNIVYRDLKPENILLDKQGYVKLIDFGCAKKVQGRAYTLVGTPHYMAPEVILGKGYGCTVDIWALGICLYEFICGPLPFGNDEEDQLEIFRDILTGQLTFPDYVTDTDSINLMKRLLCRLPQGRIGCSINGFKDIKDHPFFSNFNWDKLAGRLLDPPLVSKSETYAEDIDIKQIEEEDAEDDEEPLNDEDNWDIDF
UniProt P41146, whole entry: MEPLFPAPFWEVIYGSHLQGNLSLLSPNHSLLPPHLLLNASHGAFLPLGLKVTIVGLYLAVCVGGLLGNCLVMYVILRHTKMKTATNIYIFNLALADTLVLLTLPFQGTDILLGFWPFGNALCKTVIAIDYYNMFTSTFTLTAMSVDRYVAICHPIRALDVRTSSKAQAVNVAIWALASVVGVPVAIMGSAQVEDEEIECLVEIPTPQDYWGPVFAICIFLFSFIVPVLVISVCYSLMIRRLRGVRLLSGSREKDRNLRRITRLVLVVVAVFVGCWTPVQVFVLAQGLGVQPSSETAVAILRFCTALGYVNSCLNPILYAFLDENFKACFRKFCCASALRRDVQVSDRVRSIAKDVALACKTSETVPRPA
UniProt Q9VNB5, whole entry: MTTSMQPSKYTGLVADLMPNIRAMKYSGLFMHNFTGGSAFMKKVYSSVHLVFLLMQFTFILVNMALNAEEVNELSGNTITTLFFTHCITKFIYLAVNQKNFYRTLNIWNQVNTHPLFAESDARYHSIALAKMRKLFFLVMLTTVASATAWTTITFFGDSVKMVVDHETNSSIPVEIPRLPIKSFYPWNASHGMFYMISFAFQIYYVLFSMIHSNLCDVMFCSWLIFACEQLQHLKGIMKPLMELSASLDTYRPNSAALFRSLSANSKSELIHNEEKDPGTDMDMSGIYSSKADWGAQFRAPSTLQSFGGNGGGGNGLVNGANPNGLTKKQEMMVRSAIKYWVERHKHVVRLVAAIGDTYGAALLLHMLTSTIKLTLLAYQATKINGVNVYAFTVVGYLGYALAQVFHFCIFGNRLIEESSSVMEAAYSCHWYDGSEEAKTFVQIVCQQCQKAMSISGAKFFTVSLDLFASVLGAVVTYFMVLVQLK
UniProt P08510, 1-655 with tags or gaps DEL6-46: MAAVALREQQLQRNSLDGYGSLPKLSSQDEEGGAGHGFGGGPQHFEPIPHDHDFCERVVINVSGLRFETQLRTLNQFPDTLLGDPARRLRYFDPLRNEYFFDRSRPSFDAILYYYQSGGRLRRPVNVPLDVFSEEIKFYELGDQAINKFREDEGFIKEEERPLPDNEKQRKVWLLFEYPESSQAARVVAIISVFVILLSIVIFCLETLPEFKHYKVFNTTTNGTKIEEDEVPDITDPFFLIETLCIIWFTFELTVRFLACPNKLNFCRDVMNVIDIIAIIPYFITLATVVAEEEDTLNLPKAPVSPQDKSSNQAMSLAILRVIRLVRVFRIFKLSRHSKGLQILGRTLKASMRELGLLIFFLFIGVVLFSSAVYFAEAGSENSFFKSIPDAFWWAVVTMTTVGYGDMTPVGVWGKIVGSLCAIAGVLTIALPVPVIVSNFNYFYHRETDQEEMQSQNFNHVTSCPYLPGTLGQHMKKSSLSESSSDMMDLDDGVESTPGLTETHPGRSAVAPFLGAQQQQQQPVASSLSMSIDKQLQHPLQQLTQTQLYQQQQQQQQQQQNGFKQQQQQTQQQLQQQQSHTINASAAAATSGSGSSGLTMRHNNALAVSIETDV
UniProt P37136, 32-614 limits assumed: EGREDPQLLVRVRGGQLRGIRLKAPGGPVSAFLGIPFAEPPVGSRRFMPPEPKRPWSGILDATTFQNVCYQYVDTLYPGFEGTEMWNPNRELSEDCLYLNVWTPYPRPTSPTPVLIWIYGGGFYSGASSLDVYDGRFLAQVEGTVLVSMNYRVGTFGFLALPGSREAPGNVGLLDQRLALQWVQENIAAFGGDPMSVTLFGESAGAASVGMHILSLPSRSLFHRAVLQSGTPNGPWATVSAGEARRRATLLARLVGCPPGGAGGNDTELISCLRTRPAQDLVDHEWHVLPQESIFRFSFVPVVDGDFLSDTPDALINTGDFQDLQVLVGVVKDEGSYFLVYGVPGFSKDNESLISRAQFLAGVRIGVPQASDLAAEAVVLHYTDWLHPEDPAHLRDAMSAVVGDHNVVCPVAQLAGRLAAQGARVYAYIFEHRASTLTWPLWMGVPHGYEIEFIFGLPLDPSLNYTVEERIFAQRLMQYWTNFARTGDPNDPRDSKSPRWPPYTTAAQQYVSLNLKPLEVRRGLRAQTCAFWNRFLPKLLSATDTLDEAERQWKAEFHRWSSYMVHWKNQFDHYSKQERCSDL
UniProt Q9UGN5, whole entry: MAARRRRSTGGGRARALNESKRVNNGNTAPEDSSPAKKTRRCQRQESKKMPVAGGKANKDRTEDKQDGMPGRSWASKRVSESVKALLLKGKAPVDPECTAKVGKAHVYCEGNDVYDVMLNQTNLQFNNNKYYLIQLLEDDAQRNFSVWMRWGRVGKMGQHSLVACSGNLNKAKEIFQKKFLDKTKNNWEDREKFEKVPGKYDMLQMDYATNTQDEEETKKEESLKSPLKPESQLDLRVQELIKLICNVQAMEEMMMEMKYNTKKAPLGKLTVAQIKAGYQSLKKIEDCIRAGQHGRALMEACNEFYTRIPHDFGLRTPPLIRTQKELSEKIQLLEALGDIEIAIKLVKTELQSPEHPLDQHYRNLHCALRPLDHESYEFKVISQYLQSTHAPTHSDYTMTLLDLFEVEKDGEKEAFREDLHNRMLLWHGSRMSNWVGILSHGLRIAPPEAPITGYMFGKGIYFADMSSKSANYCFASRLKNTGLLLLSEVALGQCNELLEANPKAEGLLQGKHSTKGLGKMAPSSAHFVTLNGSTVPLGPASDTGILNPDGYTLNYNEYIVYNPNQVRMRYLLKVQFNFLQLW
UniProt P32121, whole entry partner: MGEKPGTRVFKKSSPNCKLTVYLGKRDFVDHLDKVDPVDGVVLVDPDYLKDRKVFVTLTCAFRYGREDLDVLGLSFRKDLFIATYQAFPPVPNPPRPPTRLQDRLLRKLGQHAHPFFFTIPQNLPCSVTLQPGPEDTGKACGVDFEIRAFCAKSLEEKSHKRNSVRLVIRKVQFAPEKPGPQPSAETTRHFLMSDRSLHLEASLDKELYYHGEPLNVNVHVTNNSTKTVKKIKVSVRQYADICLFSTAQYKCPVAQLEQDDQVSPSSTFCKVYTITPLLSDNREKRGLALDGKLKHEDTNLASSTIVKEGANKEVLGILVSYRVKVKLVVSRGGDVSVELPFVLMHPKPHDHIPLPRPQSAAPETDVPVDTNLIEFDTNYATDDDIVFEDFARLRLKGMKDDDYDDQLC

CCN(CC)Cc1onc(-c2cccc(Cl)c2)c1-c1ccnc(N[C@@H]2CCN(C(=O)c3ccn(C)n3)C2)n1 — inhibition (PKG T618Q; kinase activity, inhibitor, IMAP; 10 µM, gatekeeper mutant): 36 ± 5%
CC(C)[C@H]1CC[C@@H](N2CCC3(CC2)C(=O)NCN3c2ccccc2)CC1 — intrinsic activity (OPRL1; β-arrestin recruitment, BRET; HEK293; concentration not given, unit not given, added: β-arrestin 2; baseline: N/OFQ maximal effect): 0.43 ± 0.04
CC[C@H](C)[C@@H]1NC(=O)[C@H](CCCNC(=N)N)NC(=O)[C@@H](N)CSSC[C@@H]2NC(=O)[C@@H]3CSSC[C@@H](C(=O)N[C@H](C(=O)O)C(C)C)NC(=O)[C@H](CCCCN)NC(=O)[C@H](CC(N)=O)NC(=O)[C@H](Cc4ccccc4)NC(=O)[C@H](CCCNC(=N)N)NC(=O)[C@H](CC(N)=O)NC(=O)[C@H](CSSC[C@H](NC(=O)[C@H](CCCCN)NC(=O)[C@H](CCC(N)=O)NC(=O)[C@H](CC(N)=O)NC(=O)[C@@H]4C[C@@H](O)CN4C1=O)C(=O)N[C@@H](Cc1ccccc1)C(=O)N[C@@H](CCC(N)=O)C(=O)N[C@@H](Cc1c[nH]cn1)C(=O)N[C@@H](CC(C)C)C(=O)N[C@@H](CC(=O)O)C(=O)N[C@@H](CC(=O)O)C(=O)N3)NC(=O)[C@H](CCCCN)NC(=O)[C@H](CCCNC(=N)N)NC(=O)[C@H](CO)NC2=O — inhibition difference, pulse vs chronic (Sh (Drosophila melanogaster, UniProt P08510, del6-46); potassium current, patch clamp; 500 nM, added: 1 mM TEA): < 3%
CCc1ccc2c(c1)CCN2C(=O)CSc1nnc(-c2ccncc2)n1CC — efficacy (Orco; calcium mobilization, agonist; HEK293 expressing Drosophila Orco; baseline: VUAA1): 130%
CS(=O)(=O)Cc1onc(-c2cccc(Cl)c2)c1-c1ccnc(N[C@@H]2CCN(C(=O)c3nccs3)C2)n1 — inhibition (PKG T618Q; kinase activity, inhibitor, IMAP; 10 µM, gatekeeper mutant): 33 ± 9%
O=C1Cc2ccccc2N1C1CCN([C@@H]2CC[C@H]3CCCc4cccc2c43)CC1 — intrinsic activity (OPRL1; β-arrestin recruitment, BRET; HEK293; concentration not given, unit not given, added: β-arrestin 2; baseline: N/OFQ maximal effect): 0.87 ± 0.08
CC[C@H](C)[C@H](NC(=O)[C@H](C)NC(=O)[C@H](CCC(=O)O)NC(=O)[C@H](CCC(=O)O)NC(=O)[C@H](CC(C)C)NC(=O)[C@H](CCCCN)NC(=O)[C@H](CCCCN)NC(=O)[C@H](CCSC)NC(=O)[C@H](CCC(=O)O)NC(=O)[C@H](Cc1ccc(O)cc1)NC(=O)[C@H](CCC(=O)O)NC(=O)[C@H](CC(C)C)NC(=O)[C@H](CC(=O)O)NC(=O)[C@H](CC(C)C)NC(=O)[C@H](Cc1ccccc1)NC(=O)[C@@H](NC(=O)[C@@H](NC(=O)[C@H](CC(N)=O)NC(=O)[C@@H](NC(=O)[C@H](CCC(N)=O)NC(=O)[C@H](CC(=O)O)NC(=O)[C@H](CC(C)C)NC(=O)[C@H](CO)NC(=O)[C@H](CC(C)C)NC(=O)[C@H](CC(=O)O)NC(=O)[C@@H]1CCCN1C(=O)[C@H](C)N)[C@@H](C)CC)C(C)C)[C@@H](C)O)C(=O)N[C@@H](CCCCN)C(=O)N[C@@H](CCCCN)C(=O)N[C@@H](CC(C)C)C(=O)N[C@@H](CCC(=O)O)C(=O)N[C@@H](CCC(=O)O)C(=O)N[C@@H](CO)C(=O)N[C@@H](Cc1ccc(O)cc1)C(=O)N[C@H](C(=O)N[C@@H](CC(=O)O)C(=O)N[C@@H](CC(C)C)C(=O)N[C@@H](CCCCN)C(=O)N[C@@H](CCC(=O)O)C(=O)N[C@@H](CC(C)C)C(=O)O)[C@@H](C)CC — IC50 (SARS-CoV-2 XBB.1.5 pseudovirus; pseudovirus infection, inhibitor, luciferase; Caco-2; 24 h): 66.5 nM
CCOP(=O)(OCC)ON1C(=O)c2cccc3cccc(c23)C1=O — IC50 (Ache (Rattus norvegicus, UniProt P37136); enzyme activity, inhibitor; rat, postnatal day 1, rat brain homogenate; 15 min, 37 °C): 62 nM
CCCN(C)Cc1onc(-c2cccc(Cl)c2)c1-c1ccnc(N[C@@H]2CCN(C(=O)c3ccn(C)n3)C2)n1 — inhibition (PKG T618Q; kinase activity, inhibitor, IMAP; 10 µM, gatekeeper mutant): 6.5 ± 8%
C=CCn1c(SCC(=O)N2CCc3cc(CC)ccc32)nnc1-c1ccncc1 — efficacy (Orco; calcium mobilization, agonist; HEK293 expressing Drosophila Orco; baseline: VUAA1): 76%
CC[C@H](C)[C@H](NC(=O)[C@H](C)NC(=O)[C@H](CCC(=O)O)NC(=O)[C@H](CCC(=O)O)NC(=O)[C@H](CC(C)C)NC(=O)[C@H](CCCCN)NC(=O)[C@H](CCCCN)NC(=O)[C@H](CCSC)NC(=O)[C@H](CCC(=O)O)NC(=O)[C@H](Cc1ccc(O)cc1)NC(=O)[C@H](CCC(=O)O)NC(=O)[C@H](CC(C)C)NC(=O)[C@H](CC(=O)O)NC(=O)[C@H](CC(C)C)NC(=O)[C@H](Cc1ccccc1)NC(=O)[C@@H](NC(=O)[C@@H](NC(=O)[C@H](CC(N)=O)NC(=O)[C@@H](NC(=O)[C@H](CCC(N)=O)NC(=O)[C@H](CC(=O)O)NC(=O)[C@H](CC(C)C)NC(=O)[C@@H](N)CO)[C@@H](C)CC)C(C)C)[C@@H](C)O)C(=O)N[C@@H](CCCCN)C(=O)N[C@@H](CCCCN)C(=O)N[C@@H](CC(C)C)C(=O)N[C@@H](CCC(=O)O)C(=O)N[C@@H](CCC(=O)O)C(=O)N[C@@H](CO)C(=O)N[C@@H](Cc1ccc(O)cc1)C(=O)N[C@H](C(=O)N[C@@H](CC(=O)O)C(=O)N[C@@H](CC(C)C)C(=O)N[C@@H](CCCCN)C(=O)N[C@@H](CCC(=O)O)C(=O)N[C@@H](CC(C)C)C(=O)O)[C@@H](C)CC — IC50 (SARS-CoV-2 EG.5.1 pseudovirus; pseudovirus infection, inhibitor, luciferase; Caco-2; 24 h): 288 nM
Cc1ccc(S(=O)(=O)Nc2cccc(C(=O)NC3CCN(c4ncnc5[nH]cnc45)CC3)c2)cc1 — inhibition (Replicase polyprotein 1ab, nsp14 ExoN with nsp10 (rep, Severe acute respiratory syndrome coronavirus 2, UniProt P0DTD1); ExoN activity; 50 µM): -0.121%
CC#Cc1ccc2c(=O)[nH]nc(Cc3ccc(F)c(C(=O)N4CCN(c5ccc(C#N)cn5)CC4)c3)c2c1 — selectivity ratio (PARP2 (Homo sapiens, UniProt Q9UGN5); PASTA; baseline: IC50 PARP2 over IC50 PARP7): ~75 fold
CNC(=O)CC1C(=O)N(C2CCN([C@H]3CC[C@@H](C(C)C)CC3)CC2)c2ccccc21 (some centres unmarked) — concentration ratio (OPRL1; G protein activation, GTPγS binding; CHO membranes; baseline: compound over N/OFQ EC50): 1.2

For quick reference, copied from above:
C=CCn1c(SCC(=O)N2CCc3cc(CC)ccc32)nnc1-c1ccncc1 — efficacy (Orco; calcium mobilization, agonist; HEK293 expressing Drosophila Orco; baseline: VUAA1): 76%
